{"data": "Published values gathered from unrelated publications", "note": "A part holds a random share of what one study measured. Positions count from the first letter of the parent shown."}
{"data": "Set 1", "target": "Interferon regulatory factor 5, full length, phosphomimetic (IRF5, Homo sapiens, UniProt Q13568-2, residues 1-514, K96S/S451D/S453D/S456D/S462D)", "technique": "protein-binding microarray", "form": "double-stranded DNA, one strand shown", "matrix": "in vitro", "concentration": "250 nM", "setting": "60-bp whole probe", "with": "salmon DNA 0.4 mg/ml", "baseline": "random background probes", "reading": "higher = stronger binding", "all sequences stand within": "GCCTAGCAC … GTCTTGATTCGCTTGACGCTGCTG"}
{"Strand": "TTAGATATCAGGCTCGATTAGTGCTAG", "log fluorescence": "0.175 z-score"}
{"Strand": "TCACATTTAGAAAATGGAACTGTGCTA", "log fluorescence": "0.601 z-score"}
{"Strand": "GACGGTATCGACTTTTGGGACGTGCTA", "log fluorescence": "1.9 z-score"}
{"Strand": "GTAGATATCAGTCTCGATTAGTGCTAG", "log fluorescence": "1.99 z-score"}
{"Strand": "TTCGATATCAGTCTCGATTAGTGCTAG", "log fluorescence": "3.06 z-score"}
{"Strand": "GACGATTTCCTTATCCTGACGTGCTAG", "log fluorescence": "0.247 z-score"}
{"Strand": "GACGATCTCCGTATCGAGACGTGCTAG", "log fluorescence": "0.409 z-score"}
{"Strand": "TCAAAGCAAAAATGATTACTGTGCTAG", "log fluorescence": "0.247 z-score"}
{"Strand": "TTCGGACTGCTTATCCTTTAGTGCTAG", "log fluorescence": "-0.0657 z-score"}
{"Strand": "TCACAAAAATGATTGGTACTGTGCTAG", "log fluorescence": "0.00481 z-score"}
{"Strand": "GACGGTATCCTTCTCCTGTCGTGCTAG", "log fluorescence": "0.438 z-score"}
{"Strand": "GTCGATCTCAGACTGGAGACGTGCTAG", "log fluorescence": "-0.313 z-score"}
{"Strand": "GGCTGTTTGGCCCTGAACCTGTGCTAG", "log fluorescence": "-0.56 z-score"}
{"Strand": "GACGAACTGAGTATCGATACGTGCTAG", "log fluorescence": "6.77 z-score"}
{"Strand": "GCCGGTTCCGGTTTCGGGACGTGCTAG", "log fluorescence": "5.14 z-score"}
{"Strand": "TTAGATTTCAGTTCCGATTTGTGCTAG", "log fluorescence": "2.76 z-score"}
{"Strand": "GTAGGTCTCCTTATCCTTTAGTGCTAG", "log fluorescence": "-0.254 z-score"}
{"Strand": "GACGGCTTCGGTATCGGGACGTGCTAG", "log fluorescence": "1.21 z-score"}
{"Strand": "GACGGTTTCCTTTTACTGACGTGCTAG", "log fluorescence": "1.26 z-score"}
{"Strand": "TTAGATATCAGTCTCGACTAGTGCTAG", "log fluorescence": "1.34 z-score"}
{"Strand": "GTAGAACTGAGTCTCGATTAGTGCTAG", "log fluorescence": "0.328 z-score"}
{"data": "Set 2", "target": "Sal-like protein 4, full length isoform A (SALL4, Homo sapiens, UniProt Q9UJQ4, residues 1-1053)", "technique": "universal PBM", "form": "double-stranded DNA, one strand shown", "matrix": "in vitro", "concentration": "600 nM", "setting": "8-mer, flanks averaged, mean of replicates", "reading": "higher = stronger binding", "chain of UniProt Q9UJQ4 (whole entry, looked up)": "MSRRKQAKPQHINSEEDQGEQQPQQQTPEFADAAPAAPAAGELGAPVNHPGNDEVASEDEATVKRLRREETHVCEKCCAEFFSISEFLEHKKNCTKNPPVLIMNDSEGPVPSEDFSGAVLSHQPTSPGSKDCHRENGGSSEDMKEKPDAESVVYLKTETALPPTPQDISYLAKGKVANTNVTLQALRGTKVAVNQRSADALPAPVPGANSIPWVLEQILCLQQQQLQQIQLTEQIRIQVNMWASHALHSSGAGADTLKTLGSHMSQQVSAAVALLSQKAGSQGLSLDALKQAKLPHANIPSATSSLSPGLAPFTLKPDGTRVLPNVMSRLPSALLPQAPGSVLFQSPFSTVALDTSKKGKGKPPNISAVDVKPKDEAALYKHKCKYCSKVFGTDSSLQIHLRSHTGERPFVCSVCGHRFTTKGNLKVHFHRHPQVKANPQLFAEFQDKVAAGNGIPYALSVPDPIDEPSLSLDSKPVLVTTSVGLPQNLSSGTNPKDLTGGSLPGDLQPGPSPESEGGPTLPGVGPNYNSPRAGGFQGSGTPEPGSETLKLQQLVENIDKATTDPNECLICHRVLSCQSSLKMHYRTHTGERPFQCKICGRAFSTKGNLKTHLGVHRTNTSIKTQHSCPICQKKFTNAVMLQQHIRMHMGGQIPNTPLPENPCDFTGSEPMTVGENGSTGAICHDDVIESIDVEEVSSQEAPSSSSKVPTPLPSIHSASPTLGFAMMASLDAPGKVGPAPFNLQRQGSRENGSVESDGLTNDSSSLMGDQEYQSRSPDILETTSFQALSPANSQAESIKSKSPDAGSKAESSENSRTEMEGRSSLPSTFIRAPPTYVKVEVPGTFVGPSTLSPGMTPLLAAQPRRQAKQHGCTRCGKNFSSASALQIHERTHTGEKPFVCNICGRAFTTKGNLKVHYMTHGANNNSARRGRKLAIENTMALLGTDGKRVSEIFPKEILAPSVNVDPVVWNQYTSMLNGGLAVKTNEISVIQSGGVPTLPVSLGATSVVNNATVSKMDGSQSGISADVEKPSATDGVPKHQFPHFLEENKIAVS"}
{"Strand": "AGCATCTG", "E-score": -0.147}
{"Strand": "ACAAAACC", "E-score": 0.0597}
{"Strand": "ATGCATCA", "E-score": 0.259}
{"Strand": "CAACGTAC", "E-score": 0.0103}
{"Strand": "AGCTTACA", "E-score": 0.197}
{"Strand": "GCCTTGCA", "E-score": -0.0478}
{"Strand": "CCTGGATC", "E-score": -0.242}
{"Strand": "CCAGTTCA", "E-score": -0.0731}
{"Strand": "AGGCCGAG", "E-score": -0.26}
{"Strand": "CGGGTCCC", "E-score": -0.378}
{"Strand": "ACCATGCC", "E-score": -0.154}
{"Strand": "ATGTGTAC", "E-score": 0.162}
{"Strand": "AGATGGGA", "E-score": 0.00281}
{"Strand": "ATCTAAGG", "E-score": 0.0121}
{"Strand": "GCTTTGAC", "E-score": -0.0443}
{"Strand": "CTACAGAA", "E-score": 0.189}
{"Strand": "GCGCAGTA", "E-score": -0.0637}
{"Strand": "AACGGCTA", "E-score": -0.042}
{"Strand": "GGAGTTAC", "E-score": -0.142}
{"Strand": "ACTCCGGA", "E-score": -0.0601}
{"Strand": "AGCGGGGC", "E-score": -0.343}
{"Strand": "GAACGTGC", "E-score": -0.201}
{"Strand": "CAAAAACC", "E-score": 0.0505}
{"Strand": "ACTCCTAT", "E-score": 0.141}
{"data": "Set 3", "target": "Histone acetyltransferase KAT6A, winged helix 1, GST fusion (KAT6A, Homo sapiens, UniProt Q92794, residues 1-85)", "technique": "protein binding microarray", "form": "double-stranded DNA, one strand shown", "matrix": "in vitro", "concentration": "not given", "setting": "8-mer, flanks averaged, mean of 2 arrays, mostly near background", "baseline": "not given", "reading": "higher = stronger binding", "Target sequence (chain)": "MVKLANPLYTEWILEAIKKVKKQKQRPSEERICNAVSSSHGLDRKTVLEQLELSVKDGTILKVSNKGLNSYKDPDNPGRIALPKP"}
{"Strand": "GCCTCTAC", "E-score": -0.0846}
{"Strand": "CAGTTGTC", "E-score": -0.214}
{"Strand": "ACAAGTCT", "E-score": -0.126}
{"Strand": "GGAGAGCC", "E-score": 0.0781}
{"Strand": "ACGATTTC", "E-score": -0.0478}
{"Strand": "CCCTCTAA", "E-score": -0.199}
{"Strand": "CATGTGAC", "E-score": -0.143}
{"Strand": "AAAGCCAC", "E-score": -0.253}
{"Strand": "CGTGGAAA", "E-score": 0.072}
{"Strand": "ACATGACG", "E-score": 0.12}
{"Strand": "GCCACGAC", "E-score": -0.0249}
{"Strand": "ACGAGACG", "E-score": 0.0991}
{"Strand": "CGTCCCTA", "E-score": 0.128}
{"Strand": "CGGTCCGA", "E-score": 0.286}
{"Strand": "GAGCCGTA", "E-score": 0.317}
{"Strand": "GGTAAAGA", "E-score": -0.0435}
{"Strand": "CCCGTCCC", "E-score": 0.311}
{"Strand": "ATGTTCGA", "E-score": -0.152}
{"Strand": "GAGGGAAC", "E-score": -0.0278}
{"Strand": "TCCCTCAA", "E-score": -0.125}
{"Strand": "AAGTGCGG", "E-score": 0.0489}
{"Strand": "ACGGCTAC", "E-score": 0.381}
{"data": "Set 4", "target": "ABI1, truncated, D143A, DHFR fusion (Arabidopsis thaliana)", "technique": "DHFR PCA, deep sequencing", "matrix": "yeast", "setting": "methotrexate growth selection, single substitutions", "with": "(+)-ABA 4.8 µM", "baseline": "wild-type fitted maximum", "reading": "higher = stronger binding", "parent": "PYL1, truncated, DHFR fusion (Arabidopsis thaliana); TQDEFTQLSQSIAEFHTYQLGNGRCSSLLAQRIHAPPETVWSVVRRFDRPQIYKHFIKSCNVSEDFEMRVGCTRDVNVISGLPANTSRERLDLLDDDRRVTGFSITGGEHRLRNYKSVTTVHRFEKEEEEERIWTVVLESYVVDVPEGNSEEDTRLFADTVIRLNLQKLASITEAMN"}
{"Variant": "A13T", "relative binding score [%]": 65.3}
{"Variant": "R74D", "relative binding score [%]": 2.05}
{"Variant": "T101K", "relative binding score [%]": -8.07}
{"Variant": "H34L", "relative binding score [%]": 70.1}
{"Variant": "Q7C", "relative binding score [%]": 75.3}
{"Variant": "F5L", "relative binding score [%]": 82.4}
{"Variant": "Q10V", "relative binding score [%]": 55.1}
{"Variant": "F66N", "relative binding score [%]": 42.7}
{"Variant": "V44R", "relative binding score [%]": -5.59}
{"Variant": "R111F", "relative binding score [%]": 0.752}
{"Variant": "N114E", "relative binding score [%]": 3.38}
{"Variant": "F103C", "relative binding score [%]": -7.57}
{"Variant": "S117N", "relative binding score [%]": -10.4}
{"Variant": "D144P", "relative binding score [%]": -5.49}
{"Variant": "G21L", "relative binding score [%]": 56.7}
{"Variant": "T101G", "relative binding score [%]": -6.93}
{"data": "Set 5", "partner": "ARF18 482-602 (Arabidopsis thaliana, UniProt Q9C5W9)", "technique": "two-hybrid", "baseline": "out of 4 tests", "reading": "higher = firmer interaction", "B1": "ARF8 699-811 (Arabidopsis thaliana, UniProt Q9FGV1); chain NSSNQTKNFVKVYKSGSVGRSLDISRFSSYHELREELGKMFAIEGLLEDPLRSGWQLVFVDKENDILLLGDDPWESFVNNVWYIKILSPEDVHQMGDHGEGSGGLFPQNPTHL", "B2": "IAA34 (Arabidopsis thaliana, UniProt Q9C5X0); chain MYCSDPPHPLHLVASDKQQKDHKLILSWKKPTMDSDPLGVFPNSPKYHPYYSQTTEFGGVIDLGLSLRTIQHEIYHSSGQRYCSNEGYRRKWGYVKVTMDGLVVGRKVCVLDHGSYSTLAHQLEDMFGMQSVSGLRLFQMESEFCLVYRDEEGLWRNAGDVPWNEFIESVERLRITRRNDAVLPF", "B3": "ARF4 660-788 (Arabidopsis thaliana, UniProt Q9ZTX9); chain QSSSKRICTKVHKQGSQVGRAIDLSRLNGYDDLLMELERLFNMEGLLRDPEKGWRILYTDSENDMMVVGDDPWHDFCNVVWKIHLYTKEEVENANDDNKSCLEQAALMMEASKSSSVSQPDSSPTITRV", "B4": "ARF11 500-622 (Arabidopsis thaliana, UniProt Q9ZPY6); chain SPKEQKQQTSTRSRIKVQMQGTAVGRAVDLTLLRSYDELIKELEKMFEIEGELSPKDKWAIVFTDDEGDRMLVGDDPWNEFCKMAKKLFIYPSDEVKKMRSKSLLGDKGTIVNLESDQRTVHV", "Residues (chain)": "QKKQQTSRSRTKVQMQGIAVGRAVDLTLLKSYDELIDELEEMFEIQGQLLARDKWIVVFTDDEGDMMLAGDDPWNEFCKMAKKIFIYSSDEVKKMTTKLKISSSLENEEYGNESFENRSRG"}
{"Sequence": "B1 (ARF8 699-811)", "positive tests": 0}
{"Sequence": "B2 (IAA34)", "positive tests": 3}
{"Sequence": "B3 (ARF4 660-788)", "positive tests": 0}
{"Sequence": "B4 (ARF11 500-622)", "positive tests": 1}
{"data": "Set 6", "target": "CCNB3, cyclin fold, Cln2 fusion (human)", "technique": "yeast growth competition, sequencing", "matrix": "yeast", "setting": "weak parent motif", "baseline": "not given", "reading": "higher = stronger binding", "parent": "MICAL3 docking peptide (human); LQLRRQLSFSEDS"}
{"Variant": "S8R", "normalised enrichment score": -0.00429}
{"Variant": "R4G", "normalised enrichment score": 0.156}
{"Variant": "L7R", "normalised enrichment score": -0.143}
{"Variant": "D12S", "normalised enrichment score": 0.0343}
{"Variant": "R5M", "normalised enrichment score": -0.0539}
{"Variant": "R4N", "normalised enrichment score": -0.0313}
{"Variant": "L7M", "normalised enrichment score": 0.177}
{"Variant": "R4C", "normalised enrichment score": -0.0162}
{"Variant": "L3C", "normalised enrichment score": 1.01}
{"Variant": "D12Q", "normalised enrichment score": 0.172}
{"Variant": "L3T", "normalised enrichment score": 0.268}
{"Variant": "L7S", "normalised enrichment score": -0.185}
{"Variant": "R4M", "normalised enrichment score": 0.0976}
{"Variant": "R4V", "normalised enrichment score": -0.0309}
{"Variant": "S10W", "normalised enrichment score": -0.0604}
{"Variant": "R4A", "normalised enrichment score": 0.392}
{"Variant": "D12E", "normalised enrichment score": 0.153}
{"Variant": "S10V", "normalised enrichment score": -0.0872}
{"note": "Repeated from above (set 4):"}
{"Variant": "R74D", "relative binding score [%]": 2.05}
{"Variant": "T101K", "relative binding score [%]": -8.07}
{"Variant": "H34L", "relative binding score [%]": 70.1}
{"Variant": "Q7C", "relative binding score [%]": 75.3}
{"Variant": "F5L", "relative binding score [%]": 82.4}
{"Variant": "Q10V", "relative binding score [%]": 55.1}
{"Variant": "F66N", "relative binding score [%]": 42.7}
{"Variant": "V44R", "relative binding score [%]": -5.59}
{"Variant": "R111F", "relative binding score [%]": 0.752}
{"Variant": "N114E", "relative binding score [%]": 3.38}
{"Variant": "F103C", "relative binding score [%]": -7.57}
